Assay results from different studies.
Numbered parts are unrelated; each lists some results of a single study.

Study 1
Target: Ras GTPase-activating protein-binding protein 1, C-terminal RGG region (G3BP1, Homo sapiens, UniProt Q13283)
UniProt Q13283, sequence (whole entry, looked up): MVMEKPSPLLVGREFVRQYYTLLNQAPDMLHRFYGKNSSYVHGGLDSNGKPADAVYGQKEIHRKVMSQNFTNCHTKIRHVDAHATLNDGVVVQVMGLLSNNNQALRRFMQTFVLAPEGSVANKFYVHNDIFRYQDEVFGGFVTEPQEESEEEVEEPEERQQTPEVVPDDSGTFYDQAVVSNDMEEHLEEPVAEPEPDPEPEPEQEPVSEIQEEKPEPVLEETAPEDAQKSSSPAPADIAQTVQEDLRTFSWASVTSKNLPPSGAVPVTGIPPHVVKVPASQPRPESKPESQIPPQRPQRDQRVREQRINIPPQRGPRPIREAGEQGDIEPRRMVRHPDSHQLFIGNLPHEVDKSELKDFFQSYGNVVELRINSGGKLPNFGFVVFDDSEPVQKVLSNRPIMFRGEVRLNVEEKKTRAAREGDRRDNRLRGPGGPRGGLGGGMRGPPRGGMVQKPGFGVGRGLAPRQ
Method: RNA Bind-n-Seq
Form: RNA
Medium: in vitro
Tested at: 1 µM
Notes: whole 134-nt RNA, ends assumed
With: 150 mM KCl
Baseline: input library
Direction: higher = stronger binding
Endpoint: log2 enrichment
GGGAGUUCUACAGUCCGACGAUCUGGCCCUGGUGGCAUGCGGGGAGGAAGAGGUGGCCUCAUGGAUCGUGGUGGUCCCGGUGGAGUGUUCAGAGGUGGCCGUGGUGGAGACAGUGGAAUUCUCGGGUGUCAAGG: 1.86
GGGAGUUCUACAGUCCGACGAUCGUCCUGUGCUACACAUCGUAUGUACCGAAUCGGGAGGGUUUUUUUGGGAAAAAAAGGGAAAGUAUUAUGUUACGCCGUUCGGAUCUGCACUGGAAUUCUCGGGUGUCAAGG: -0.706
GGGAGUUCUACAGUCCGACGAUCAGUCCUGUGCUACACAUCGUAUGUACCGAAUCGGUUUUGGGGUUUUGGGGUUUUGGGGAAAGUAUUAUGUUACGCCGUUCGGAUCUGCACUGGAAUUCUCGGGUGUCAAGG: -0.534
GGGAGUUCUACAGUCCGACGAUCCCUGUGCUACACAUCGUAUGUACCGAAUCGGGUUUUUUUGGGUUUUUUUGGGUUUUUGGGAAAGUAUUAUGUUACGCCGUUCGGAUCUGCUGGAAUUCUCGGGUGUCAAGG: -1.36
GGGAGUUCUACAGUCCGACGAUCCCUCAAGUCCUGUGCUACACAUCGUAUGUACCGAAUCGGCGGGCGGGGCGGGAAAGUAUUAUGUUACGCCGUUCGGAUCUGCACUUCCAGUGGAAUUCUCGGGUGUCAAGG: -0.0559
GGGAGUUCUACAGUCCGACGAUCUCCUCAAGUCCUGUGCUACACAUCGUAUGUACCGAAUCGGUGGUGGGGUGGAAAGUAUUAUGUUACGCCGUUCGGAUCUGCACUUCCAGCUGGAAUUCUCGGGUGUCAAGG: -0.692
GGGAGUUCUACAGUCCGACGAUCACCAUGCAGGUGGGCAUCUUUGGGAAGUGGGGCAAGGGGGGGAUAGGGAAGGGGGUAACACUUUGGGAACAGGUGGUCCCAGGUCGUUUCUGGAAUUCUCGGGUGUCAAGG: 2.39
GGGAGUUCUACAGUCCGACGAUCGUCCUGUGCUACACAUCGUAUGUACCGAAUCGGGGUUUUUGGGGAAAAAGGGGAGGGGAAAGUAUUAUGUUACGCCGUUCGGAUCUGCACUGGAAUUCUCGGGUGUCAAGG: 2.24
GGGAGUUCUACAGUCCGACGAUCCACACACAACACGCACCCACACAGACACAGAGGGAAGGGGUUGGGAUGGGGACAGGGUGCACAGCAGGGCGGGGUAGGACCCCAGCCCCUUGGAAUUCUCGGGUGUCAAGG: -0.276
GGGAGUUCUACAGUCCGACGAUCGUCCUGUGCUACACAUCGUAUGUACCGAAUCGGGGAGGGGUUUUUGGGGUUUUUGGGGAAAGUAUUAUGUUACGCCGUUCGGAUCUGCACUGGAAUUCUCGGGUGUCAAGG: 1.37

Study 2
Target: RNA binding protein fox-1 homolog 2, RRM domain, GST-SBP tag (RBFOX2, Homo sapiens, UniProt O43251-10, residues 100-194)
Method: RNA Bind-n-Seq
Form: RNA
Medium: in vitro
Tested at: 365 nM
Notes: natural RNA segment, single round, ends assumed
Baseline: no-protein control
Direction: higher = stronger binding
Endpoint: RBNS enrichment (R)
Target sequence (chain): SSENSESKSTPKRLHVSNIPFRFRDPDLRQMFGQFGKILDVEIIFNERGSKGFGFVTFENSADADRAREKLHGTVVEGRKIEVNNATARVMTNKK
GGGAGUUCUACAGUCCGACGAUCUUUCUCAGGUUCUUAACAGCCUGUGCAAACUCCCUGACUAGAUGGUCUGUCACUCCUAUCAUUACCUUGCACCCAUCUCUUUAGAUGGCCUCAGCACCUCACUCGUUAUUUGGAAUUCUCGGGUGCCAA: 0.973
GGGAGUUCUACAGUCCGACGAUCAGUGAUCCUCCCACCUCAGCCUCCUGAGUAGCUGGGACCAUAGGCUCACAACACCACACCUGGCAAAUUUGAUUUUUUUUUUUUUUCCAGAGACGGGGUCUCGCAACAUUUGGAAUUCUCGGGUGCCAA: 0.299
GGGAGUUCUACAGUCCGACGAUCUGGCAAAGCUGCAGCUUUUUCCUGCAUUUGGUCCCAUAAUCUUAAUAGAAACAAUUUCCUAUUACACAGAAAUGACUAAUUCCAGAGUCUCAUGAUAUAAUUUGCUAUAAUGGAAUUCUCGGGUGCCAA: 0.311
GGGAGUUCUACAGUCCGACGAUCGGCAGAGCAGGCUGCCCAGCCGAAGCGGGAAGGGCAUGUUGGGCAAGCUGCUGGAGCGACUGAUGUACAGUUGUUAUUUGUCUAUAAAUGGAGCUGUUUAUGGCAAUUUAUGGAAUUCUCGGGUGCCAA: 0.895
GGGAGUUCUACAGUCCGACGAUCAUGUCAACUGGGUAAAGCCUUCCAGAGCUCUCUAAAUACCUGAAAGACUUAAGCCUUUUUUUAAGUAAUUAAUACUUAAAAAAAAAGAUCCUGGCAUCUAUUUAUGCAACUGGAAUUCUCGGGUGCCAA: 0.783
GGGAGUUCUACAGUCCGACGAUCAGGACAGAGCUAUUUUGCUAUGAUAAUCUCUGUGGUUUAUGAUAAUAAUCUGAACAGCAAACAGUGCCAUUAAGUGCACAGAUGUUAAUGCAACUAAUGGUUGUGCCAGCUGGAAUUCUCGGGUGCCAA: 0.477
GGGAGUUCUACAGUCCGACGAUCUGUUGCUAAAUACUAUUUAUGUAAGUCUGAAAAGGUUUUUAACCCAUAUAAAACAUUUAAAUAAUGCAGGUUAUUAUGAGCAAGUUAGCUUUGAGAACCCUCCUUUUAGUUGGAAUUCUCGGGUGCCAA: 0.439
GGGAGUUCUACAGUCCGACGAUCUAUUUGAAGCCACACACACUGGUGUAAUAUGCUUAGUACUCUAGGUCAAGGAUUUGUUGGUAAAUGGAACAUUUUAGCAUAGUCAUGAUUUUUGGUUGCCUAGACAUCAGUGGAAUUCUCGGGUGCCAA: 0.765
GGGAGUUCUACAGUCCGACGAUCAAAGAAAGGGUGGAUGGAUUGAAAAGAUUAGCCUCUGUCUCGGUGGCAGGUUCCCACCUCGCAAGCAAUUGGAAACAAAACUUUUGGGGAGUUUUAUUUUGCAUUAGGGUUGGAAUUCUCGGGUGCCAA: 0.596
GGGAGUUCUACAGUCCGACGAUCGCAUUUGCGGUUAGAAUGGUCUUGUUGCCUAAACUGUCUAAAAUUCUAAUAAAAUAACUUUCUAAGAGUCAUUGGAGUGGGCCUUUUAAAAUCUCCAUUUUGAGUUUGAUUGGAAUUCUCGGGUGCCAA: 0.437
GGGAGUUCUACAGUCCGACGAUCCCCAGGGUGGCGGUGGUGGCAGCAGUGAUCCUCUGAACCUGCAGAGGCCCCCUCCCCGAGCCUGGCCUGGCUCUGGCCCGGUCCUAAGCUGGACUCCUCCUACACAAUUUUGGAAUUCUCGGGUGCCAA: 0.251
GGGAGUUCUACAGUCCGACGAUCUGGUUCCUUUAACUCUUCACCAAGUCCUCUAGCUGUAUUUCUGAAGGCUCUCACACUUCUUCUGUGAAGCGUGGGCUUCAUUUCCAUGGCCCUGAGGCCCAGAGAGACAGUGGAAUUCUCGGGUGCCAA: 0.316

Study 3
Target: Sal-like protein 4, full length isoform A (SALL4, Homo sapiens, UniProt Q9UJQ4, residues 1-1053)
UniProt Q9UJQ4, sequence (whole entry, looked up): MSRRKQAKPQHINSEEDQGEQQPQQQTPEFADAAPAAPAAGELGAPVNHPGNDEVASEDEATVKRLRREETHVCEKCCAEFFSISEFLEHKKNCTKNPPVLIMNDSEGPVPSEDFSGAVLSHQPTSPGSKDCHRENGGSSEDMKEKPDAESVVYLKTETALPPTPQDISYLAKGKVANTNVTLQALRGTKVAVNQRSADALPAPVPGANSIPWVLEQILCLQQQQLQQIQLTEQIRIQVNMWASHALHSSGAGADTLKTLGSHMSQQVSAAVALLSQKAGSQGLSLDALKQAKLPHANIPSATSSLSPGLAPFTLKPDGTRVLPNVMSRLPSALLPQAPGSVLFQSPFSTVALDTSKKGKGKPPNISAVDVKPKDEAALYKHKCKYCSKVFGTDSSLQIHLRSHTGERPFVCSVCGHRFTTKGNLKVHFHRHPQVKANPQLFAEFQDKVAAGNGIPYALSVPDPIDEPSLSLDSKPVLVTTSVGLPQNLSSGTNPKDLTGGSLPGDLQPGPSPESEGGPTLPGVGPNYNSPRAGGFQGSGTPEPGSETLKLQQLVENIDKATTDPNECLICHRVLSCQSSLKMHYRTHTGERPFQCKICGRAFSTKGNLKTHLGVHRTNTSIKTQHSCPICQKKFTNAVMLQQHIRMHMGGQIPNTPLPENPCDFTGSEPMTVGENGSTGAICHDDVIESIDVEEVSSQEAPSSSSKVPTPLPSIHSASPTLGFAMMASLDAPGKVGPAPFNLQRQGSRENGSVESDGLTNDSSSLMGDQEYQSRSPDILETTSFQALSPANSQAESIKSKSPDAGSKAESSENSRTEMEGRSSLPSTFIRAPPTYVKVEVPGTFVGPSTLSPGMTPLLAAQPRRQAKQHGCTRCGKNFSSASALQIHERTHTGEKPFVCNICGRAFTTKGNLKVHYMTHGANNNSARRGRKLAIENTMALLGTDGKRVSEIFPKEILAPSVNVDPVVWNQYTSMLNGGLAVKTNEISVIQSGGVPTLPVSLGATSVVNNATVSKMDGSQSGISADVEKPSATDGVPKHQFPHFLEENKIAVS
Method: universal PBM
Form: double-stranded DNA, one strand shown
Medium: in vitro
Tested at: 600 nM
Notes: 8-mer, flanks averaged, mean of replicates
Direction: higher = stronger binding
Endpoint: E-score
GCCAAAGA: -0.0418
CACTTAGA: 0.103
ACTCGGAC: -0.0824
CTGGCACA: -0.0941
AACCCATC: -0.217
ATCACTTA: 0.198
GAACCACC: -0.199
AAATTTAA: 0.251
CACTCGAA: 0.042
TCATGGCA: 0.0406
ACCAGATA: 0.252
ATTCTTTC: 0.157
ACCTTTGG: -0.149
CCGTTCAC: -0.227
AGGGTGAT: -0.0742
AGGGGGAT: -0.168

Study 4
Target: RING finger protein unkempt homolog, zinc fingers 1-6, SBP tag (UNK, Homo sapiens, UniProt Q9C0B0, residues 30-357)
UniProt Q9C0B0, sequence (30-357, looked up): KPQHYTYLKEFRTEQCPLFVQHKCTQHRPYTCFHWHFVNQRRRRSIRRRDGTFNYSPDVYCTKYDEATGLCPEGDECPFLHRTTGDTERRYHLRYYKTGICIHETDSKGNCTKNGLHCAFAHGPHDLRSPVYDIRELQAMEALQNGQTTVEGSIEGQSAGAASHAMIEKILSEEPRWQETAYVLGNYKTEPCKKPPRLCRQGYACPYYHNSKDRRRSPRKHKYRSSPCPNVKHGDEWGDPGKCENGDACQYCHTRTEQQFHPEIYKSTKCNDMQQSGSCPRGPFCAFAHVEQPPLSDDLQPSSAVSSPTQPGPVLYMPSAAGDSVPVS
Method: RNA Bind-n-Seq
Form: RNA
Medium: in vitro
Tested at: 100 nM
Notes: RNA with constant flanks, vertebrate orthologous sites, ends assumed
Baseline: input RNA pool
Direction: higher = stronger binding
Endpoint: bound/input enrichment
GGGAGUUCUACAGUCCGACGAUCGAGCUAAAGGAGAUAGCAUCUUUAUUUUUGUAUCAAAGAUAAAGGUUAUUUUGAAAUUAUUAGGAUUUUUACACAACUCUGAAACCUGUUGCUUUUUGUAAACAAAUUGUUUGCUCUUAGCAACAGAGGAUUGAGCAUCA: 1.2 ratio
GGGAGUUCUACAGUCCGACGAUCAAAUUUAUUUUAUGCCCUGGACUCCCUACCGCACUGAUACUUUAAUAGAAUAUGCUUCUUUAGAAGAUUUUCAAAACAGCCGCCAGACAACAACCUACAAACUUCCAAACCGAGUAGAUGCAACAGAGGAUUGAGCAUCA: 1.57 ratio
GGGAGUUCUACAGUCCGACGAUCUAAUUCCAUGGUUGAAGGGUCUGAAUUGAAAAAAGUUAGGUCCAAUUCUAGAAUUUACCACCGAUACUUUCUUUUGGAUGCAGAUAUGCAGUCUUUACGCUGGGAGCCUUCUAAAAAAGACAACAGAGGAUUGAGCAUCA: 0.413 ratio
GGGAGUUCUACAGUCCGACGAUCUUGAGAACAGCUCUCCAAAUAGGAAUAGUAGUAAAAAAAAUAAGCAAAAUGAUAUUUGUAUAGAAAAAACAGAAGUUAAAUCAUGUAAAGUAAAUGCUGCCAACCUUCCAGGUCCUAAAGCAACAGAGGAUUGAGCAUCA: 1.11 ratio
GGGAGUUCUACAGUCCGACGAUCCAAAAACGUUUCCACUGGGUUUUGCCUGUAAGAAAAAAAAAAAAAAUGUACCCGAGCACAUAGAGCUUUUUAAUAGCACUAACCAAUGCCUUUUUAGAUGUAUUUUUGAUGUAUAUAUCUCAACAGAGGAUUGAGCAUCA: 0.705 ratio
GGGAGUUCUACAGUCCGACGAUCAUUGAACAAAAAACGUUUCCACUGGGUUUUGCCUAUAAGAAAAAAAUGUACCCGAGCACAUAGAGCUUUUUAAUAGCACUAACCAAUGCCUUUUUAGAUGUAUUUUUGAUGUAUAUAUCUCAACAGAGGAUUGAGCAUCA: 0.693 ratio
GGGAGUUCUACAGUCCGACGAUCGAACCCUAGUUUGUGUGCGCGUUAUCCACAUUCCUCUCUGUUCUGUUGGGAAAAGACAUUUUAACCUUUUUUAAGGUUGAUUUAAGUUCAUAUUAUUUGGUUGCAUGAAGUUGCCCUUAACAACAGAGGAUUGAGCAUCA: 0.446 ratio
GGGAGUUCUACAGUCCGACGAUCAGUAUGUGUGUACAUUAUUCACAUUCCUCUCUGUUCUGUUGAAAGGAAAAAAAGACAUUUUGACCUUUUUUUAAGGUUAUUGACUUAAUUUUAUGUUAUUUGGUUGCAUGAAGUUGCCCUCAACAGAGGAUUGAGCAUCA: 0.254 ratio
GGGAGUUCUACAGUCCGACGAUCCUGCUUUCAGGUUGUGGCUAAUUGCCCCCCUUCCCAUCUUCCACUUUAAGUUCUUUCCUUUGCCCCCUCCAUAAUCCCUCUCUUAACUCAGACAGGUGUGGAGCAUUUUACUCAGUCAUUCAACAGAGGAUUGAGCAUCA: 0.532 ratio
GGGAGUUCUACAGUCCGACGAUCAUCUCUCAUUUUAUAUAUCCAAAAAUGACUUUCAAUUUUUAAAGAAUUGCUGGUUUUAAUUAGCUCUGCCCUCCUAAGAUGGUGGUAUAAUUCACCACAAAUAGCUGUCUAUCUGAAUUACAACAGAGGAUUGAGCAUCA: 1.06 ratio
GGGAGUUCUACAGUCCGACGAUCUCCCCUGAGCCGGGACAGAUUUUUUUUUUUAAUGUCUUGAAACUUAAAACUCUGUGCUUGUAGGAGACUGUAACCUUUUUGUCUUUUUUUUUUUUUAAAAAAAAAAACAAUCUCCACCUCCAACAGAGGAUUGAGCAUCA: 0.535 ratio

Repeated from above (study 3):
CTGGCACA: -0.0941
AACCCATC: -0.217
ATCACTTA: 0.198
GAACCACC: -0.199
AAATTTAA: 0.251
